Assay results of several laboratories.
Each numbered part is a random draw from the data of one study; scales do not carry over between parts. Changes are numbered by the printed parent chain.

Set 1
Target: Ras GTPase-activating protein-binding protein 1, RRM domain (G3BP1, Homo sapiens, UniProt Q13283)
Chain of UniProt Q13283 (whole entry, looked up): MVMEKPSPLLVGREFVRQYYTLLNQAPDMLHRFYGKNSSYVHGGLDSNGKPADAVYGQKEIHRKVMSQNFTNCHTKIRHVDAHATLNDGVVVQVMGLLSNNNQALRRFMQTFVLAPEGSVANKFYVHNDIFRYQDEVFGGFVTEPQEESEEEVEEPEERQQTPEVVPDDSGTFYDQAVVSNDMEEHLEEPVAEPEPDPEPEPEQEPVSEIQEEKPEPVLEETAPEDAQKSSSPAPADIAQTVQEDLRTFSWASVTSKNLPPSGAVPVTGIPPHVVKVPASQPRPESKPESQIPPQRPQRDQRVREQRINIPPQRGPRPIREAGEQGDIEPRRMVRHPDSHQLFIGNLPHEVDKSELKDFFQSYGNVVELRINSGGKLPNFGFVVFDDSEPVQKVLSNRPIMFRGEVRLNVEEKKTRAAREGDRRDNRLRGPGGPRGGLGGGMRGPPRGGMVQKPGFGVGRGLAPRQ
Method: RNA Bind-n-Seq
Form: RNA
Sample: in vitro
Tested at: 1 µM
Notes: whole 134-nt RNA, ends assumed
Together with: 150 mM KCl
Relative to: input library
Direction: higher = stronger binding
| Sequence | log2 enrichment |
| --- | --- |
| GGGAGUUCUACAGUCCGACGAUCAAGUCCUGUGCUACACAUCGUAUGUACCGAAUCGGAAAAAGGUUUUUUUGGUUUGGAAAGUAUUAUGUUACGCCGUUCGGAUCUGCACUUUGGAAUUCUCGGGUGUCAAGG | -0.521 |
| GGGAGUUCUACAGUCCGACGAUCCACAGACAACACGCACCCACACAGACACAGAGGGAAGGGGUUGGGAUGGGGAAAAGGUGCACAGCAGGGCGGGGUAGGACCCCAGCCCCUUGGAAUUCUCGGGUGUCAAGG | -0.0192 |
| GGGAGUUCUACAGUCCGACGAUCUGGGAGGUGGAUUUUGUUUAUUUUUUUAGCUCAUUUCCAGGGAUGGGAAUUUUUUUUUAAUAUGUGUCAUGAAUAAAGUUGUUUUUGAAAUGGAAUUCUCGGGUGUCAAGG | 1.16 |
| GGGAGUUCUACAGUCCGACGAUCUGGCCCUGGUGGCAUGCGGGGAGGAAGAGGUGGCCUCAUGGAUCGUGGUGGUCCCGGAGGAAUGUUCAGAGGUGGCCGUGGUGGAGACAGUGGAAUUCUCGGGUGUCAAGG | 0.806 |
| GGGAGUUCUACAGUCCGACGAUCUCUGGACAUGCAGGUGGACCAGUCAGUGCCAGAGUAAGUUGUUGUUUUCUUAAAAGAAAAAAAAAAAUGUAAAAUCAUCUAACCCUAACCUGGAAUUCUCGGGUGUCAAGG | -0.0114 |
| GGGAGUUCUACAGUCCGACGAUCGCAGGAAGUAAAAACAAAUGGAAAUGCUUCGGAUAGUGGCAGGGGUGGGGGUUGCUAAGGAAAGGGUGGAAAGGGAGUGGGUAAAGAGUUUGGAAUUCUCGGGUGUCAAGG | 0.827 |
| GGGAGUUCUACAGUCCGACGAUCCAAGUCCUGUGCUACACAUCGUAUGUACCGAAUCGGGGAGGGGAAAGGGGAGGGGAAAGUAUUAUGUUACGCCGUUCGGAUCUGCACUUCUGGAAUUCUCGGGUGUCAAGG | 1.31 |
| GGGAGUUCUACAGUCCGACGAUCCUCAAGUCCUGUGCUACACAUCGUAUGUACCGAAUCGGAAAGGGAAAGGAAAGGAAAGUAUUAUGUUACGCCGUUCGGAUCUGCACUUCCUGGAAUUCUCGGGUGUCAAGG | -0.272 |
| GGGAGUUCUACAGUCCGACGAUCUGGGAGGUGGUUUUUGUUUAUUUUUUUAGCUCAUUUCCAGGGGUGGGAAUUUUUUUUUAAUAUGUGUCAUGAAUAAAGUUGUUUUUGAAAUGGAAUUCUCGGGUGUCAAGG | 1.46 |

Set 2
Target: ABI1, truncated, D143A, DHFR fusion (Arabidopsis thaliana)
Method: DHFR PCA, deep sequencing
Sample: yeast
Notes: methotrexate growth selection, single substitutions
Together with: (+)-ABA 0.0091 µM
Relative to: wild-type fitted maximum
Direction: higher = stronger binding
Starting sequence: PYL1, truncated, DHFR fusion (Arabidopsis thaliana); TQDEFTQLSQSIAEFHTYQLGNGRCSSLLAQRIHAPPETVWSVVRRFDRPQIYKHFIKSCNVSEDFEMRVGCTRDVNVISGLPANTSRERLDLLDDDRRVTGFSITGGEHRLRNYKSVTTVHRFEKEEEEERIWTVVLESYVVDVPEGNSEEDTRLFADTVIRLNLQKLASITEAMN
| Substitution | relative binding score |
| --- | --- |
| R99L | 57.2% |
| F157A | 1.49% |
| C60P | -5.87% |
| Q7K | 24.1% |
| C25Q | 5.2% |
| N177F | 41.5% |
| V76K | -1.87% |
| T6C | 23.5% |
| A84D | 21.6% |
| N85A | 50.2% |
| E151S | 27.6% |
| N149Q | 47.8% |
| L93V | 41.4% |

Set 3
Target: Interferon regulatory factor 7, full length, phosphomimetic (IRF7, Homo sapiens, UniProt Q92985, residues 1-503, S101K/S471D/S472D/S475D/S476D/S477D/S483D/S484D/S487D)
Method: protein-binding microarray
Form: double-stranded DNA, one strand shown
Sample: in vitro
Tested at: 250 nM
Notes: 60-bp whole probe
Together with: salmon DNA 0.4 mg/ml
Relative to: random background probes
Direction: higher = stronger binding
Shared flanks, not repeated: GCCTAGCAC … GTCTTGATTCGCTTGACGCTGCTG
Construct (chain): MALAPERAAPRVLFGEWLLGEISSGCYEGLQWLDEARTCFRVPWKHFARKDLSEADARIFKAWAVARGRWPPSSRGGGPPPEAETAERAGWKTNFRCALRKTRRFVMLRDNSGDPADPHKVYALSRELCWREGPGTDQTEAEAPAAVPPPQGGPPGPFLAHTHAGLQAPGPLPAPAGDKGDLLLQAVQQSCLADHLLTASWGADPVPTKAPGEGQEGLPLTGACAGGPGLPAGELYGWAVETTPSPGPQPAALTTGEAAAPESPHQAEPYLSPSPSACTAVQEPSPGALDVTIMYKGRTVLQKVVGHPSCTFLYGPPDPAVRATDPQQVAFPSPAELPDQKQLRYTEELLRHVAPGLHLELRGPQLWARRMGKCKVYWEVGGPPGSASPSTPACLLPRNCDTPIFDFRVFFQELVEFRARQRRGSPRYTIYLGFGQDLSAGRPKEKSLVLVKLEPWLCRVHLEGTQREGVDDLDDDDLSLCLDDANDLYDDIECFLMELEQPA
| Sequence | log fluorescence [z-score] |
| --- | --- |
| CACGGTTTCCTTTCCCTGACGTGCTAG | 5.1 |
| TTAGGACTGGGTACCGGTTAGTGCTAG | 0.205 |
| TCATAATTCTGATTGGAACTGTGCTAG | 0.314 |
| TTAGATTTCGGCTTTCGATTAGTGCTA | 1.79 |
| GACGGTTCCCTTTTCGTGACGTGCTAG | 2.93 |
| GACGGTATCCTTCCCCTGACGTGCTAG | 0.0596 |
| GACGGTTTCGGGTCTCGGGACGTGCTA | 10.3 |
| GTCGGTTTCCTACTGCTGACGTGCTAG | 2.71 |
| GACGATATCGGGTTTCGAGACGTGCTA | 2.98 |
| TCATAAGTTTCACTCTGCACTGTGCTA | 2.98 |
| TCATGCCTGTTTTTCCCACTGTGCTAG | 0.765 |
| TCAATCGTAAGCAAAAAACTGTGCTAG | -0.159 |
| TTAGGTTTCCTACTTCTTTAGTGCTAG | 1.69 |
| GACGGACTTGACACTGGGGACGTGCTA | -0.657 |
| GACGGGTTCCTTATCCTGACGTGCTAG | 0.759 |
| TCAAGTAGCTTTCTGAGACTGTGCTAG | -0.554 |
| GACGGTTTCGGACTGGAGACGTGCTAG | 3.73 |
| GACGGTCTCAGTATCGGGACGTGCTAG | 0.445 |
| TTAGGTCTCCTGTTCCTTTAGTGCTAG | 0.24 |

Set 4
Target: RNA binding protein fox-1 homolog 2, RRM domain, GST-SBP tag (RBFOX2, Homo sapiens, UniProt O43251-10, residues 100-194)
Method: RNA Bind-n-Seq
Form: RNA
Sample: in vitro
Tested at: 365 nM
Notes: natural RNA segment, single round, ends assumed
Relative to: no-protein control
Direction: higher = stronger binding
Target sequence (chain): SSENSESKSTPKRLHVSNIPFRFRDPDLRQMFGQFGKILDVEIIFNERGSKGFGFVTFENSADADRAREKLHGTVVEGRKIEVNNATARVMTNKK
| Sequence | RBNS enrichment (R) |
| --- | --- |
| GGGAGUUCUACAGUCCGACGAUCAUAUGAUUUUUUGACAGGCUGUUUCCUCGUCGUAUAGAUUUUUUCCAAUCAAACCUACUUUUUCCAUACUCUGUGCAUAUUUUUUGUGAAGUUAUACACAUUGAAGACCCUGGAAUUCUCGGGUGCCAA | 1.01 |
| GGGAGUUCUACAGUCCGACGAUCAGUGUUUCUGGCUCUCAGCCCUAAGGCCCUGCAAACUCUAACUUAUUUCCCAAUUAGUCUGUAUCUAUACUUGGGCUCUGUAUGUGAAUGAAGGUUGGUCACCCAUCCAGUGGAAUUCUCGGGUGCCAA | 2.46 |
| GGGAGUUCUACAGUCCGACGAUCAUUUCUCAUGUCUUGAGGUUUUGUUCAUGCCCCUAUGACUGACCAAUGUGAUAAGGACUUUAAAAAAGAAGCAUGUAUGUUUUUUACUGUUUGUAAGAAGUACUUUCGUUUGGAAUUCUCGGGUGCCAA | 2.86 |
| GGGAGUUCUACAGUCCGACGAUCCAAAGGGCUCUUUUUCAGCUAACCCUGGGAAGGCUCUGUGGGAGGGAGGUCGGAGCCAGCUGUUUCUCGAUCUUUGGUAUAUCUUUGGAUCUUAUUUGUACAUUAAUGAUUGGAAUUCUCGGGUGCCAA | 0.36 |
| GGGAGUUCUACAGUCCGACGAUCUCCUAUCACAUACCAAGUAGUGAGUGGAGAAAGUAUUUUCAGAUUCAAGAAAACUUUGGAAAGUCAGGAACUAAGCUGCUUGGAAAUCAGUGCCACAAGCAUGACCUUGGUGGAAUUCUCGGGUGCCAA | 2.08 |
| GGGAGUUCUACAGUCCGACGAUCACCCUGGUUUUUUUCCUGUGCCCACUCCGGCUUGUCCUCAUCUCUACCCAUCCCCUGAUGCCCAGGUCACCGGGAGGGCUGCUGGGAGCCUCUCCUGUCCCCGCCGGGCAUGGAAUUCUCGGGUGCCAA | 0.474 |
| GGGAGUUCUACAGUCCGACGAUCUAUGCGCCAAGAUCUAAUUUUAAAACUGUAUGAGGACUUUGUGCUGAAAAUAGAGUAUUUUUUUAAAGUAAGGCUGUCUUGGUUUAAAAGCAGAUUACAGAAAUGUAAGUUGGAAUUCUCGGGUGCCAA | 0.571 |
| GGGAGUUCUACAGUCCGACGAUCUUUAUCUGGACAGCUCUCCUACCCUGUAUCUUCUCCUCAGAUCUGAGGAUAGCAGGCUGGACUAUUGGUGGGCACCUUUCAAGCCCAGGGCUACUGUUUGUCCUGUGGCAUGGAAUUCUCGGGUGCCAA | 0.561 |
